Results pooled from the literature.
Lines come from different studies, so protocols differ. Numbers after ± are the reported error.

`Cc1nnc(C(=O)NC(C)(C)c2nc(C(=O)NCc3ccc(F)cc3)c(O)c(=O)n2C)o1` — result for “median brain concentration”: 21.8 ng/g (LC-MS/MS; rhesus monkeys, both sexes, brain, four regions combined; dose not given, 1 day after last dose, ten days dosing).
With `O=C(CC(=O)c1ccccc1)c1ccccc1` the terminal half-life was 2.35 h (male C57BL/6J mouse, Nrf2 wild type, plasma; intraperitoneal, 100 mg/kg).
For `C[N+](C)(C)[C@@H](Cc1c[nH]c(=S)[nH]1)C(=O)[O-]`, “decrease in tissue partition coefficient” read 39.4% (rat treated with 1,25-dihydroxyvitamin D3, brain; intravenous; relative to: untreated control rats).
For `[123I]c1cncc(OC[C@@H]2CCN2)c1`, the tissue/plasma ratio was 27.5 (SPECT; human, thalamus; intravenous bolus, 8.1 mCi; relative to: plasma).
The remaining compound of `CC(C)C(=O)OC[C@H]1O[C@@H](n2ccc(NO)nc2=O)[C@H](O)[C@@H]1O` is reported as 100.8 ± 0.7% (rat brain dialysate; 250 ng/mL, 6 h, 10 °C, autosampler stability, added: NHC 1000 ng/mL).
For `O=c1[nH]c(Cc2ccccn2)nc2c1cnn2C1CCOCC1`, the Tmax was 0.5 h (male human, plasma; oral, 5 mg, single dose).
For `CC[C@H](C)[C@H](NC(=O)[C@H](CC(C)C)NC(=O)[C@H](Cc1c[nH]c2ccccc12)NC(=O)[C@H](CCC(N)=O)NC(=O)[C@@H](NC(=O)[C@H](Cc1ccccc1)NC(=O)[C@H](C)NC(=O)[C@H](CCCCNC(=O)COCCOCCNC(=O)COCCOCCNC(=O)CC[C@H](NC(=O)CCCCCCCCCCCCCCCCCCC(=O)O)C(=O)O)NC(=O)[C@H](CCC(N)=O)NC(=O)[C@H](C)NC(=O)[C@@H](NC(=O)[C@H](CCCCN)NC(=O)[C@H](CC(=O)O)NC(=O)[C@H](CC(C)C)NC(=O)C(C)(C)NC(=O)[C@@H](NC(=O)[C@H](CO)NC(=O)[C@H](Cc1ccc(O)cc1)NC(=O)[C@H](CC(=O)O)NC(=O)[C@H](CO)NC(=O)[C@@H](NC(=O)[C@H](Cc1ccccc1)NC(=O)[C@@H](NC(=O)CNC(=O)[C@H](CCC(=O)O)NC(=O)C(C)(C)NC(=O)[C@@H](N)Cc1ccc(O)cc1)[C@@H](C)O)[C@@H](C)O)[C@@H](C)CC)[C@@H](C)CC)C(C)C)C(=O)N[C@@H](C)C(=O)NCC(=O)NCC(=O)N1CCC[C@H]1C(=O)N[C@@H](CO)C(=O)N[C@@H](CO)C(=O)NCC(=O)N[C@@H](C)C(=O)N1CCC[C@H]1C(=O)N1CCC[C@H]1C(=O)N1CCC[C@H]1C(=O)N[C@@H](CO)C(N)=O`, the AUC∞ ratio was 1.16 (humans with end-stage renal disease; subcutaneous, 5 mg; relative to: ESRD over normal renal function).
`CSCC[C@@H]1NC(=O)[C@H](CC(=O)O)NC(=O)CNC(=O)[C@H](CCCNC(=N)N)NC(=O)[C@H](C)NC(=O)[C@H](CCC(=O)O)NC(=O)[C@H](CCCNC(=N)N)NC(=O)[C@@H]2CSSC[C@@H]3NC(=O)[C@H](CO)NC(=O)[C@H]([C@@H](C)O)NC(=O)[C@@H]4CCCN4C(=O)[C@H](C)NC(=O)[C@H](Cc4c[nH]c5ccccc45)NC(=O)[C@H](CC(=O)O)NC(=O)CNC(=O)[C@H](CCCNC(=N)N)NC(=O)CNC(=O)[C@H](CCC(N)=O)NC(=O)[C@@H]4CCCN4C(=O)[C@@H](NC(=O)CNC(=O)C(C)F)CSSC[C@H](NC(=O)CNC(=O)[C@H](C)NC(=O)[C@H](CC(C)C)NC(=O)[C@H](CSSC[C@@H](C(=O)NCC(N)=O)NC(=O)[C@H]([C@@H](C)O)NC(=O)[C@H](CCCNC(=N)N)NC(=O)[C@@H]4CCCN4C1=O)NC(=O)[C@H](CC(=O)O)NC(=O)[C@H](CO)NC(=O)[C@H](CC(=O)O)NC(=O)[C@H](CCC(N)=O)NC(=O)[C@H](CO)NC3=O)C(=O)N[C@@H](C(C)C)C(=O)N2` (stereo partly drawn) [fluorine-18 labelled] has a tissue uptake of 0.19 ± 0.04 %ID/g (nude mouse, U-87 MG xenograft, liver; intravenous, 2.5 h, added: cyclo(RGDyK) co-injected).
`CCCCCCCCCC(=O)N[C@@H](Cc1c[nH]c2ccccc12)C(=O)N[C@H](CC(N)=O)C(=O)N[C@@H](CC(=O)O)C(=O)N[C@@H]1C(=O)NCC(=O)N[C@@H](CCCN)C(=O)N[C@@H](CC(=O)O)C(=O)N[C@H](C)C(=O)N[C@@H](CC(=O)O)C(=O)NCC(=O)N[C@H](CO)C(=O)N[C@@H]([C@H](C)CC(=O)O)C(=O)N[C@@H](CC(=O)c2ccccc2N)C(=O)O[C@@H]1C`: “skin tissue concentration” “not detected” (HPLC; rat, skin tissue; subcutaneous, 50 mg/kg, 12 h, single dose, detection limit 0.075 µg/mL).
For `CN[C@@](C)(C[18F])C(=O)O`, the tissue uptake was 12 ± 1.2 %ID/g (SCID mouse U87 xenograft, spleen; 60 min, post injection).
`CC(C)c1nc(CN(C)C(=O)N[C@H](C(=O)N[C@@H](Cc2ccccc2)C[C@H](O)[C@H](Cc2ccccc2)NC(=O)OCc2cncs2)C(C)C)cs1` has an AUC(0-24) of 5380 ng·h/mL (healthy human volunteers, plasma; oral, dose not given, added: pravastatin plus 2D regimen).
`CC(C)C[C@H](NC(=O)[C@H](CCC(=O)O)NC(=O)[C@H](CCC(=O)O)NC(=O)[C@H](CC(=O)O)NC(=O)[C@H](CCC(=O)O)NC(=O)[C@H](CCC(=O)O)NC(=O)[C@H](CCC(=O)O)NC(=O)[C@@H](N)CC(=O)O)C(=O)O` has a plasma concentration of 14.3 ng/mL (rat, plasma; intravenous, 11.0 mg/kg single dose, 165 min).

A few entries again:
For `CN[C@@](C)(C[18F])C(=O)O`, the tissue uptake was 12 ± 1.2 %ID/g (SCID mouse U87 xenograft, spleen; 60 min, post injection).
